Published values collected from several papers.
Each line is one published result; not all experiments were run side by side. Numbers after ± are the reported error.

| Compound | assay | test system | conditions | how to read | measurement | value |
| --- | --- | --- | --- | --- | --- | --- |
| O=C1Nc2cc3[nH]nc(-c4ccncc4)c3cc2CN1Cc1ccccc1 | CTCAE v4.03 | advanced solid tumour patients | intravenous, 3.6 mg/kg, schedules 1/2 |  | patients with cough | 33% |
| COc1ccnc(C(=O)N[C@H]2COC(=O)[C@H](Cc3ccccc3)[C@@H](OC(=O)C(C)C)[C@H](C)OC2=O)c1OCOC(=O)C(C)C | liver toxicity | dog | oral, 1 year |  | NOAEL | 84 mg/kg/day |
| O=C(O)C(O)(c1cccs1)c1cccs1 | measured: metabolite | human, plasma | oral, 50 mg once daily, 5 days, median |  | dose-normalised free AUC(0-24) | 0.282 (ng·h/mL)/mg |
| CC[C@H](C)[C@H](NC(=O)[C@H](CCCCN)NC(=O)[C@H](CCC(=O)O)NC(=O)[C@H](CCCCN)NC(=O)[C@H](CO)NC(=O)[C@H](CCCCN)NC(=O)[C@H](CCCNC(=N)N)NC(=O)[C@H](Cc1ccccc1)NC(=O)[C@H](Cc1ccccc1)NC(=O)[C@H](CC(=O)O)NC(=O)CNC(=O)[C@H](CC(C)C)NC(=O)[C@@H](N)CC(C)C)C(=O)NCC(=O)N[C@@H](CCCCN)C(=O)N[C@@H](CCC(=O)O)C(=O)N[C@@H](Cc1ccccc1)C(=O)N[C@@H](CCCCN)C(=O)N[C@@H](CCCNC(=N)N)C(=O)N[C@H](C(=O)N[C@H](C(=O)N[C@@H](CCC(N)=O)C(=O)N[C@@H](CCCNC(=N)N)C(=O)N[C@H](C(=O)N[C@@H](CCCCN)C(=O)N[C@@H](CC(=O)O)C(=O)N[C@@H](Cc1ccccc1)C(=O)N[C@@H](CC(C)C)C(=O)N[C@@H](CCCNC(=N)N)C(=O)N[C@@H](CC(N)=O)C(=O)N[C@@H](CC(C)C)C(=O)N[C@H](C(=O)N1CCC[C@H]1C(=O)N[C@@H](CCCNC(=N)N)C(=O)N[C@H](C(=O)N[C@@H](CCC(=O)O)C(=O)N[C@@H](CO)C(=O)O)[C@@H](C)O)C(C)C)[C@@H](C)CC)C(C)C)[C@@H](C)CC | LC-MS | 50% pooled human serum | 40 µM, 720 min, pH 7.5, 37 °C | reference: 0 h | remaining intact peptide | 0% |
| O=C(c1ccc(F)c(F)c1Nc1ccc(I)cc1F)N1CC(O)([C@@H]2CCCCN2)C1 |  | patients aged sample A to sample B years | oral, dose not given |  | SAE leading treatment withdrawal | 7% |
| C[C@@H](NC(=O)N1C(=O)[C@H](Cc2ccnc(N)c2)[C@H]1C(=O)O)C1CCCCC1 |  | healthy adult Chinese volunteers | continuous intravenous infusion, 1.0 mg/kg/h, 5-day infusion, CTCAE 5.0 grading |  | incidence of albuminuria | 12.5% |
| CO[C@H]1C[C@@H]2CC[C@@H](C)[C@@](O)(O2)C(=O)C(=O)N2CCCC[C@H]2C(=O)O[C@H]([C@H](C)C[C@@H]2CC[C@@H](OC(=O)NCCOCCOCCOCCOCCOCCOCCOCCOCCC(=O)N3CCc4cc(Cn5nc(-c6ccc7oc(N)nc7c6)c6c(N)ncnc65)ccc4C3)[C@H](OC)C2)C[C@@H](O)[C@H](C)/C=C(\C)[C@@H](O)[C@@H](OC)C(=O)[C@H](C)C[C@H](C)/C=C/C=C/C=C/1C |  | patients with advanced solid tumours | intravenous, 8 mg weekly, grade 3 or higher |  | decreased appetite leading to dose reduction | 0% |
| COc1cc2c(Oc3ccc4[nH]c(C)cc4c3F)ccnc2cc1OCC1(N)CC1 |  | paediatric recurrent refractory sarcoma | 8 mg |  | abdominal pain incidence | 25% |
| O=C(O)CNCP(=O)(O)O |  | whole cow milk | 2000 nM nominal |  | dose fraction in skim milk | 99% |
| CCc1ccc(CC/C=C/c2ccc3c(c2)C(=O)CC3)cc1 |  | Sprague-Dawley rat, female | oral, 450 mg/kg/day, 14 days |  | Basophil percentage | 0.33% |
| Cc1cc(C)c(CNC(=O)c2cc(Cl)c3c(c2C)O[C@@](C)([C@H]2CC[C@H](N(C)C)CC2)O3)c(=O)[nH]1 |  | relapsed/refractory NHL patients | dose not given, trial, safety set, treatment-related TEAE grade 5 |  | incidence of tumour lysis syndrome | 0% |
| Clc1ccc(-c2ccccc2)cc1 |  | Sprague-Dawley rats, female, serum | inhalation, 23 µg/rat, 4 h after exposure |  | creatinine | 0.4 ± 0.1 mg/dL |
| CCCCCCCCCCCCCCCC(=O)N[C@@H](CCC(=O)NCCCC[C@H](NC(=O)[C@H](CC(=O)O)NC(=O)[C@H](CO)NC(=O)[C@@H](NC(=O)[C@H](Cc1ccccc1)NC(=O)[C@@H](NC(=O)CNC(=O)[C@H](CCC(N)=O)NC(=O)[C@H](CO)NC(=O)[C@@H](N)Cc1c[nH]cn1)[C@@H](C)O)[C@@H](C)O)C(=O)N[C@@H](CO)C(=O)N[C@@H](CCC(=O)O)C(=O)N[C@@H](Cc1ccc(O)cc1)C(=O)N[C@@H](CC(C)C)C(=O)N[C@@H](CC(=O)O)C(=O)N[C@@H](CO)C(=O)N[C@@H](CCC(=O)O)C(=O)N[C@@H](CCCNC(=N)N)C(=O)N[C@@H](C)C(=O)N[C@@H](CCCNC(=N)N)C(=O)N[C@@H](CC(=O)O)C(=O)N[C@@H](Cc1ccccc1)C(=O)N[C@H](C(=O)N[C@@H](C)C(=O)N[C@@H](Cc1c[nH]c2ccccc12)C(=O)N[C@@H](CC(C)C)C(=O)N[C@@H](CCC(=O)O)C(=O)N[C@@H](C)C(=O)NCC(=O)NCC(=O)O)C(C)C)C(=O)O |  | human, all renal groups | sc, 100 µg single dose |  | abdominal distension | 5.4% |
| O=C(Nc1ccccc1)C1CCN(C(=O)Oc2cccnc2)CC1 | psychotropic effects VAS | healthy women | 20 mg | reference: pre-dose baseline, direction not given | change in Body score | 3.7 |
| CC(C)(C)c1cc(-n2nc3ccccc3n2)c(O)c(C(C)(C)C)c1 | exposure assessment | human, age 16-21 years | cream |  | mean daily dermal uptake | 1.54 ng/kg body weight/day |
| C[C@H](c1ccccc1)n1cncc1C(=O)OCCC(=O)O | measured: metabolite | Sprague-Dawley rat | intravenous infusion, dose not given, 60 min after stopping infusion |  | blood concentration decrease | 30% |
| C[C@]1(CO)Cc2ncn(-c3ccc(C#N)c(Cl)c3)c2C(=O)O1 |  | human | 20 mg single dose |  | subjects with drug-related headache | 14.3% |
| Cc1ccc(F)c2cc(C(=O)N[C@@H]3CCC[C@H](N4CC[C@H](N(C)S(C)(=O)=O)C4)C3)[nH]c12 |  | CD1 mouse, plasma | oral, 100 mg/kg, 0.25 h |  | plasma concentration | 1940 ng/mL |
| CC(=O)c1c(C)c2cnc(Nc3ccc(C4CCN(CCS(C)(=O)=O)CC4)cn3)nc2n(C2CCCC2)c1=O |  | human | oral, dose not given, steady state, continuous dosing, range over doses |  | Tmax | 0.5 to 3 h |
| CCCCCOc1ccc(-c2ccc(-c3ccc(C(=O)N[C@H]4C[C@@H](O)[C@@H](OCC[N+](C)(C)C)NC(=O)[C@@H]5[C@@H](O)[C@@H](C)CN5C(=O)[C@H]([C@@H](C)O)NC(=O)[C@H]([C@H](O)[C@@H](O)c5ccc(O)cc5)NC(=O)[C@@H]5C[C@@H](O)CN5C(=O)[C@H]([C@@H](C)O)NC4=O)cc3)cc2)cc1 |  | adult ICU patients, mITT, serum | dose not given, Baseline |  | albumin | 26.1 g/L |
| O=S(=O)(Nc1ccccc1)c1ccc(NC(=S)Nc2ccccc2)cc1 | measured: BUN | male mouse, blood | oral, 5 mg/kg daily, 14 days |  | blood chemistry level | 18.8 mg/dL |
| NCCCC[C@@H]1NC(=O)[C@@H](Cc2c[nH]c3ccccc23)NC(=O)[C@H](c2ccccc2)NC(=O)[C@@H]2C[C@@H](OC(=O)NCCN)CN2C(=O)[C@H](Cc2ccccc2)NC(=O)[C@H](Cc2ccc(OCc3ccccc3)cc2)NC1=O |  | healthy volunteers, male | 1950 µg twice daily, 1.5 h, post hoc |  | placebo-corrected QTcF change | 12.8 ms |
| CC(C)C(=O)OC[C@H]1O[C@@H](n2ccc(NO)nc2=O)[C@H](O)[C@@H]1O |  | rat maternal placenta dialysate | 5 ng/mL, low concentration, three cycles, together with: NHC 25 ng/mL |  | freeze-thaw stability | 101 ± 2.51% |
| [O-][S+]1CCc2nc(N3CCC(c4ncc(Cl)cn4)CC3)nc(NC3(CO)CCC3)c21 (stereo not drawn) | phase I trial, measured: nervous system disorders | idiopathic pulmonary fibrosis patients | 18 mg twice daily |  | subjects with adverse events | 20% |
| CC(C)[C@@H]1NC(=O)CNC(=O)[C@H](CC(N)=O)NC(=O)[C@H](CCCNC(=N)N)NC(=O)[C@H](Cc2ccc(O)cc2)NC(=O)[C@H](C(C)C)NC(=O)[C@@H](NC(=O)[C@@H](NC(=O)[C@H](CC(N)=O)NC(=O)[C@H](Cc2c[nH]c3ccccc23)NC(=O)[C@H](C)NC(=O)[C@H](Cc2ccccc2)NC(=O)CN)C(C)C)CSSC[C@@H](C(=O)N[C@@H](Cc2cnc[nH]2)C(=O)N[C@@H](CCCNC(=N)N)C(=O)N[C@@H](CCCNC(=N)N)C(=O)N[C@@H](C)C(=O)N[C@@H](CC(N)=O)C(N)=O)NC(=O)[C@H](C(C)C)NC(=O)[C@H](CCCNC(=N)N)NC1=O |  | ICR mice, serum | intraductal mammary, 5 mg/kg, day 5 |  | phosphorus | 3.13 ± 0.24 mmol/L |
| CN1CC[C@@H](c2c(O)cc(O)c3c(=O)cc(-c4ccc(C(F)(F)F)cc4Cl)oc23)[C@@H]1CO | measured: Pneumonia | relapsed AML | oral, 150 mg, grade 3-4, intermittent dosing |  | patients with adverse event | 0% |
| COc1ccc(CCC2CCCC(CCc3ccc(OC)cc3)N2C[C@@H](O)CO)cc1.Cl (stereo in doubt) |  | rabbit Purkinje fibres | 0.03 µM, cycle length 1 s | reference: baseline | Vmax change | -1.3 ± 0.9% |

Some of these lines once more:
| Compound | assay | test system | conditions | how to read | measurement | value |
| --- | --- | --- | --- | --- | --- | --- |
| COc1cc2c(Oc3ccc4[nH]c(C)cc4c3F)ccnc2cc1OCC1(N)CC1 |  | paediatric recurrent refractory sarcoma | 8 mg |  | abdominal pain incidence | 25% |
| O=C(O)CNCP(=O)(O)O |  | whole cow milk | 2000 nM nominal |  | dose fraction in skim milk | 99% |
| CCc1ccc(CC/C=C/c2ccc3c(c2)C(=O)CC3)cc1 |  | Sprague-Dawley rat, female | oral, 450 mg/kg/day, 14 days |  | Basophil percentage | 0.33% |
| Cc1cc(C)c(CNC(=O)c2cc(Cl)c3c(c2C)O[C@@](C)([C@H]2CC[C@H](N(C)C)CC2)O3)c(=O)[nH]1 |  | relapsed/refractory NHL patients | dose not given, trial, safety set, treatment-related TEAE grade 5 |  | incidence of tumour lysis syndrome | 0% |
